Assay results pooled from the literature.
Each line is one published result; not all experiments were run side by side.

SMILES | assay | test system | conditions | quantity | result
CN(CCC#N)C1CCN(C(=O)Cn2cc(NC(=O)c3cnn4cccnc34)c(-c3cc(Cl)ccc3OC(F)F)n2)CC1 | gamma scintigraphy | human, right lung | inhalation | central to peripheral ratio | 0.58
NC(=O)c1cnc2[nH]ccc2c1N[C@@H]1[C@@H]2CC3C[C@H]1C[C@@](O)(C3)C2 |  | healthy human volunteers, plasma | oral, dose not given, population PK model estimate | central volume | 253 L
COC[C@@H](c1ccc(C(F)(F)F)cc1)N1CCN(C2(C)CCN(C(=O)c3c(C)ncnc3C)CC2)C[C@@H]1C |  | human | dose not given, population PK model, with: ritonavir | central volume of distribution | 41.3 L
C[C@@]1(Cl)[C@H](O)[C@@H](CO)O[C@H]1n1ccc(=O)[nH]c1=O |  | human | dose not given | central volume of distribution | 3.92 L
CN1CC[C@@H](NC(=O)Nc2ccc(C#N)cc2)C[C@@H]1c1nc2ccccc2[nH]1 |  | human cancer patients, plasma | oral, dose not given, population PK base model | central volume Vc/F | 3.27 L
Cc1cn(-c2cc(NC(=O)c3ccc(C)c(Nc4nccc(-c5cccnc5)n4)c3)cc(C(F)(F)F)c2)cn1 | population PK model, typical value | human, plasma | oral, dose not given, fasted state | central volume of distribution (V1) | 551 L
NC(N)=NCCC[C@@H](N)C(=O)N[C@@H](CCCN=C(N)N)C(=O)N1CCC[C@H]1C(=O)N1C[C@H](O)C[C@H]1C(=O)NCC(=O)N[C@@H](Cc1cccs1)C(=O)N[C@@H](CO)C(=O)N1Cc2ccccc2C[C@@H]1C(=O)N1[C@H](C(=O)N[C@@H](CCCN=C(N)N)C(=O)O)C[C@@H]2CCCC[C@@H]21 | popPK full model bootstrap median | human | subcutaneous, dose not given | central volume (Vc/F) | 20.5 L
Cn1cnc2c(F)c(Nc3ccc(Br)cc3Cl)c(C(=O)NOCCO)cc21 |  | human, plasma | oral, dose not given, nonlinear absorption | central volume of distribution | 40 L
N#CCNC(=O)c1ccc(-c2ccnc(Nc3ccc(N4CCOCC4)cc3)n2)cc1 | population PK model, NONMEM | human, plasma | oral, dose not given, typical value, final model | central volume fraction | 0.289

Some of these lines once more:
SMILES | assay | test system | conditions | quantity | result
COC[C@@H](c1ccc(C(F)(F)F)cc1)N1CCN(C2(C)CCN(C(=O)c3c(C)ncnc3C)CC2)C[C@@H]1C |  | human | dose not given, population PK model, with: ritonavir | central volume of distribution | 41.3 L
